Measured values from different studies.
Every numbered part comes from another study and shows a few of its results, in no order. Substitutions count along the parent as printed.

Study 1
Target: Sal-like protein 4, full length isoform A (SALL4, Homo sapiens, UniProt Q9UJQ4, residues 1-1053)
Sequence of UniProt Q9UJQ4 (whole entry, looked up): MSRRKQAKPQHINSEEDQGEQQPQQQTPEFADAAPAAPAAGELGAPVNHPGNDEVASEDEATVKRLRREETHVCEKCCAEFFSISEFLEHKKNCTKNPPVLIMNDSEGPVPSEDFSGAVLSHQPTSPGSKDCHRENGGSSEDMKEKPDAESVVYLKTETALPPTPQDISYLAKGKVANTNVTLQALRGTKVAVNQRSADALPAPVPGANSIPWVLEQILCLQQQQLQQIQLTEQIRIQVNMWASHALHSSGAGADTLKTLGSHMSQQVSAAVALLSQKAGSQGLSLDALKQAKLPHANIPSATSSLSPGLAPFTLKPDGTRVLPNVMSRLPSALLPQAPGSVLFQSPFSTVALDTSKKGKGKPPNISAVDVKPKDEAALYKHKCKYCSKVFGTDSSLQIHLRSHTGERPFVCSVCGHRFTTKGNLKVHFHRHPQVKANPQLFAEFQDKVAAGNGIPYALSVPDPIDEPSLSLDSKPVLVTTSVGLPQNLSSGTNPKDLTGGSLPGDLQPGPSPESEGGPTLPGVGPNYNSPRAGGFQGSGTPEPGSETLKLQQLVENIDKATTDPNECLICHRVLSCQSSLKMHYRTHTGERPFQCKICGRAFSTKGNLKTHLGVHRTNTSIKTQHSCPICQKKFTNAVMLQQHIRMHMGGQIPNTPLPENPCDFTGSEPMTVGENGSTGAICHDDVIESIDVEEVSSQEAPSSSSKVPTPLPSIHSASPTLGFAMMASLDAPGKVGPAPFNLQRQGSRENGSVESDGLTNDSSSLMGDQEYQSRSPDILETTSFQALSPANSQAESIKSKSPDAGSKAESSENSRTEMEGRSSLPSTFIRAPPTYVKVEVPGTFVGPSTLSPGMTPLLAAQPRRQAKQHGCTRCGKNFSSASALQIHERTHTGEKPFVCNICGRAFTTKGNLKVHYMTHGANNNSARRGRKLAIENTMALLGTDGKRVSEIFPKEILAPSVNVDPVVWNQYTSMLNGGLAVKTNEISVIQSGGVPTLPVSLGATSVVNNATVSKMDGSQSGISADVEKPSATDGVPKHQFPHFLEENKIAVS
Method: universal PBM
Form: double-stranded DNA, one strand shown
Matrix: in vitro
Tested at: 600 nM
Setting: 8-mer, flanks averaged, mean of replicates
Reading: higher = stronger binding
Sequence	E-score
GTGCGAGA	-0.00609
AGCACGCA	-0.148
CTTATGGC	0.129
ACGCATCC	-0.149
AGCAAGAC	0.123
ACCCATCC	-0.21
GAGTATAC	0.14
CACCTGTC	-0.147
AACGACAC	-0.123
ACGATGGA	5.5e-05
ATTCATGG	0.162
GCGGCTAA	-0.0727
GCTGCCCC	-0.382
ACGGTGGG	-0.177
ATTTAACG	0.203
AACGTGGC	-0.112
AGCTCTAA	-0.000165
CATCAGTC	-0.158
CTTAAGAA	0.288

Study 2
Target: RING finger protein unkempt homolog, zinc fingers 1-6, GST-SBP tag (UNK, Homo sapiens, UniProt Q9C0B0, residues 30-357)
Method: RNA Bind-n-Seq
Form: RNA
Matrix: in vitro
Tested at: not given
Setting: RNA with constant flanks, human-mouse chimeric sites, ends assumed
Relative to: input RNA pool
Reading: higher = stronger binding
Shared flanks, not repeated: GGGAGUUCUACAGUCCGACGAUC … CAACAGAGGAUUGAGCAUCA
Construct (chain): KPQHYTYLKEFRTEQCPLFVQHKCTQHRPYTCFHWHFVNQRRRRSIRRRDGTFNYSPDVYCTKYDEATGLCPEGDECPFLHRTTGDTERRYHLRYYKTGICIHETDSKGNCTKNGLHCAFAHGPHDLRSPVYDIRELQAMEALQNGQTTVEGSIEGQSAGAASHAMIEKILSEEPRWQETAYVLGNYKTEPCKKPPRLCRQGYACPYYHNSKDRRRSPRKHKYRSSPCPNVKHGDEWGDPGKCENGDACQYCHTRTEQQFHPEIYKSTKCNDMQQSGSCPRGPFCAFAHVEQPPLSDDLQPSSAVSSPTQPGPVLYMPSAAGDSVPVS
Sequence	bound/input enrichment [ratio]
UGUGAACUGUCUCUUGAUUGGGGUCUACAAGAUGACUUUUCCUGGCACAUAUUCCAAAGCAAAGACUUUGUUGCCUGCUGCUUAUUGUCUAAUUUACAGGGAUAUUUAAUUUUGUAAGGU	0.235
GCAAAGGAUGAUGAGGCGGCAGCUGUUGCCCUUUCCUCUCUCGUUCAUGCUUUGGAUGACUUAGACAUGGUGGCCAUCGUCCGAUAUGCUUAUGACAAAAGAUCUAAUCCUCAAGUUGGU	0.233
UGACAAGGGCACUGCAGGGCCAUGCCUUUCCUUGACAUACAGAAAAAGCUGGGCAUCAGCCUGGACCGGCACUUUAUGUUCCUAAGCGCAGAACAGCCCUACAAGAUCGCCGCUCGGUGC	0.0776
AACAGAUUGUCUUUAAGCAUUCCAAGCGAGAAUGCUGGGGUGAUCAUUGUUGCCCAUAUAUAGUAAUACUGAGCUUUAAUGCUGUUCCAUGUUACAUUGAUGUUCUUCUCCAGAAUUGUU	0.355
AUCAAAUACUUUGGGGACAUCAUUAGUGUGGGACAGAGACUGUUGCAAGGGGCCCGGAUCUUAGGGAUUCCAGUUAUUGUAACAGAACAAUACCCCAAAGGACUUGGCAGCACCGUUCAA	0.191
AUUGUUGAAGCGAAUCCACUUUUAGAAGCAUUUGGAAAUGCGAAGACUGUUCGCAACAAUAAUAGCAGUCGAUUUGGAAAAUUUGUAGAAAUACAUUUCAAUGAAAAGAGUUCGGUUGUU	0.245
CGGAGCCCUCCUCUCCCACAGGCCCAAGAUAUAACCCACCAGUGCCUUCUGUCUGCUUGUCAGCUCUGUCAAUCACGCCUGUCCUCUCACGCCCACACCAAGUGCCCAAAGUGGGGAGGG	0.491
UUUGUAUUUAUGCUAAGCACACGUGCUGGUGGUCUUGGCAUCAAUCUUGCAACUGCUGAUGUAGUCAUUUUAUAUGACUCAGAUUGGAAUCCGCAAGUUGAUCUUCAGGCUAUGGACCGU	0.18
GAAUCCUACUCAGGCGGUCCCACAACAACCAAGCUCAAGUAGCAAUUAUCUUAGUCACAGUAGGGUAGUUUUGGGGCUCUGUGGCCAGGGUUUUAUUCACAUGCAGGUUUGGAAAAUGUA	1.4
GGACAUCUGUCAAAUUGUUAUGUUCCUGUGAAACAAGUGAACACUCUGAUACACUUCAUUUAGUUGUACAUCUGUAUGAUAGAGAAACAGAAAUCUAUUAAUCCAAGCAAUGUGUCACUU	0.199
CAGGGCAUUAUUUCUCGUGCUGUUAGACACCUGUUCAAGAGUAUUGAUGAGAAAAAGACCUCAGCGAUUAAAAACGGGCUGCCCCCUCCUGAAUUCAAAGUGAAUGCCCAAUUCUUAGAG	0.405

Study 3
Target: CREM, bZIP domain (human)
Method: DHFR protein complementation
Matrix: yeast
Setting: single substitutions, most at no-binding floor
Relative to: wild-type JUN-FOS pair
Reading: higher = stronger binding
Starting sequence: JUN, bZIP domain (human); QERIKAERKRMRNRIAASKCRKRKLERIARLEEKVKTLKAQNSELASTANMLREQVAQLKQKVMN; partner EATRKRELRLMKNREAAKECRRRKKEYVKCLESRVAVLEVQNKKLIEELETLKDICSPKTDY
Variant	binding fitness
L31C	-1.57 natural log
T48R	-1.4 natural log
E54P	-1.55 natural log
A46N	-1.38 natural log
L59P	-1.36 natural log
A40E	-1.42 natural log
L31N	-1.41 natural log
L59H	-1.37 natural log
M51K	-1.5 natural log
E54R	-1.34 natural log
K34L	-1.42 natural log
K34P	-1.48 natural log
L52P	-1.49 natural log
I28S	-1.54 natural log
V56A	-1.45 natural log
T37P	-1.52 natural log
N42R	-1.45 natural log
E32K	-1.45 natural log
N42K	-1.51 natural log
E32A	-1.53 natural log
E44T	-1.48 natural log
L52D	-1.43 natural log
E54V	-1.46 natural log

Mixed results
Substance	target	test	system	conditions	how to read	endpoint	result
PhoQ, residues 284 288 289 292 302 303 AGHLVA	PhoP, residues 12 14 15 18 19 MHTVL (Escherichia coli, UniProt P23836)	Sort-seq, refers to: YFP reporter	E. coli	PhoQ-PhoP variant library, together with: 10 µM Mg2+	relative to: high Mg2+ state, higher = stronger signaling	fold induction	11.2
